Results collected from several papers.
Every numbered part comes from another study and shows a few of its results, in no order. Substitutions count along the parent as printed.

Sample 1
Target: RING finger protein unkempt homolog, zinc fingers 1-6, GST-SBP tag (UNK, Homo sapiens, UniProt Q9C0B0, residues 30-357)
Technique: RNA Bind-n-Seq
Molecule type: RNA
Medium: in vitro
Tested at: not given
Notes: RNA with constant flanks, human and mouse sites, ends assumed
Relative to: input RNA pool
Direction: higher = stronger binding
Quantity: bound/input enrichment
Residues (chain): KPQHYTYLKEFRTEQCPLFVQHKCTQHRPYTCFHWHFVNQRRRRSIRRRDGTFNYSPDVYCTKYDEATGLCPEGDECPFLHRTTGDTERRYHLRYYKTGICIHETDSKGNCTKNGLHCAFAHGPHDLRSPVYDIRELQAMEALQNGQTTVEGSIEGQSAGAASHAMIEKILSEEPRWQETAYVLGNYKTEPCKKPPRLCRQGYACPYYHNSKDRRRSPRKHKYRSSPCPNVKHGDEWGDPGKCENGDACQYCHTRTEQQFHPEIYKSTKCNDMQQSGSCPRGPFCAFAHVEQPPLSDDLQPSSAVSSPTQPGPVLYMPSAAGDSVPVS
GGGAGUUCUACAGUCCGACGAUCCAAGUACAUCUUGGUGUCAGUGAUGAUCUUGGGUUGCUUGCUCACAUGACUGCGAGUGUAGAGUUAACGUGCACAUCAAGCAUAAUGGAAGAGAAAGACUUCAGAAUUCAUACGACGUCACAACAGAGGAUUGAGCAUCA: 0.136 ratio
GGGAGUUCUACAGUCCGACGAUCCUGACUGCAAAUAUCCAGGAUCUUAAGGAAGAAUAUUCUAGGAAGAAGGAAACUAUUUCUACUGCUAAUAAAGCGAAUGCAGAGAGGUUGAAAAGGCUGCAGAAAUCUGCAGACUUGUAUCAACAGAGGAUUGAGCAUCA: 0.368 ratio
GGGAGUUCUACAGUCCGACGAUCAAACAAUUGCUCUAUGAUUUCCCCUGGACAAAUGUUGGGAAGUUGGUGUUUGUGGGCAAGAAGUUUGAGAUUUUGCCAGAUGGCCUUCCCUCCGCCAGGAAGCUGGUCUACUACACAGGGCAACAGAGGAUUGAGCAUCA: 0.154 ratio
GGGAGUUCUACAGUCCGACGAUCUUUGUGGUAACUUGAGAUUCAAGACAAGAGCUGUUAUGCUGUUUCCUAGCUAGGAGCAGGCUUGUGGCAGCCUGAUUCGGGGCUGACCUUUCAAACCCAGAGGGUUGCUGGUCCUGCACACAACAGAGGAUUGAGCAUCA: 0.0624 ratio
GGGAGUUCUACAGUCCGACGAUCAUGGCUUGGCUCAAGCAACAAUUUUCAGAGUGCACCCUCAUUGAUGCUACUCACAGAGACGUGGAUGUGCUGUUACUGCUUUCUAACUCUGCCUACUACGUGGCCUAUUAUGAUGAUGAACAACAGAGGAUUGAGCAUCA: 0.213 ratio
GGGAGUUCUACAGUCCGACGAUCCGGAUCCAUUGCAGUAAAUCCUCAGUCAGGAGCAGGAGAAGCAGCCCUAAGAGAAAGCGUAAUAGACCCUGUGCAAGUCAUCAGUCGCAUUCGGUAUGAGUGGUUUGUUUUUAUUUGGAACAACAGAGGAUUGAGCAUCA: 0.232 ratio
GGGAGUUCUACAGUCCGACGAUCAGUACUGUUAUCAACAAUACCAGAGGAAUAAUUUUUUAUAGUGUCCCUCAUCAUGGAUCACGUUUGGCUGAAUACUCUGUUAAUAUUCGCUAUCUUCUCUUCCCCUCGUUGGAAGUCAAACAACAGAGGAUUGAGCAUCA: 0.298 ratio
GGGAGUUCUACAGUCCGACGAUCAGAAGUCUUGUGAUGAAAAUGGCACUUGGAAAAGGUUUUAUUUUUCCACUGAAGUUGAAGGUUAAUAAAAUGGUGUCAAACGUCCCCUGGUCACACACUUGAAUAUUUUUUUAGAAGUGUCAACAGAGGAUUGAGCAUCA: 0.417 ratio
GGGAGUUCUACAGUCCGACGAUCUACAUGGCGAAGAAGAAACCAGUUCCAGAGCAGAAAGGAACAAAAGAUUCUAGACAAGGUUUCCAUCCACCUAUGCCUGGAUUUGGUACAGCUGCUUUAAACACAUCUCCUGAGAGUCCUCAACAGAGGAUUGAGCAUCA: 0.195 ratio
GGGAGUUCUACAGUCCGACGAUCAUGCUCCUAGAAGCUGAAAAUGACAAAGAAGUUGAAAUUCUUAAAGAUAUCCGGGCACAUUUUAGUGCAAUGGUGGCCAACUUGAUUCAGUGUGUUCCAGUUCACCACCGAAGAUUUCUCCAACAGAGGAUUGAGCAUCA: 0.239 ratio
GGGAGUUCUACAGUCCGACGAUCUACAAAGAAAUCAUCAUUGAAGCCACUAAACAUCGCAACUCUGAAGAGAUGUGGAGGAGGAUGAACUUGAUGACGCCAGAAGCCCUGGGUAAGCUCAAAGAAGAGAUGAAAAGUUGUGGGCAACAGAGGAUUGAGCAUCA: 0.189 ratio

Sample 2
Target: Sal-like protein 4, full length isoform A (SALL4, Homo sapiens, UniProt Q9UJQ4, residues 1-1053)
Sequence of UniProt Q9UJQ4 (whole entry, looked up): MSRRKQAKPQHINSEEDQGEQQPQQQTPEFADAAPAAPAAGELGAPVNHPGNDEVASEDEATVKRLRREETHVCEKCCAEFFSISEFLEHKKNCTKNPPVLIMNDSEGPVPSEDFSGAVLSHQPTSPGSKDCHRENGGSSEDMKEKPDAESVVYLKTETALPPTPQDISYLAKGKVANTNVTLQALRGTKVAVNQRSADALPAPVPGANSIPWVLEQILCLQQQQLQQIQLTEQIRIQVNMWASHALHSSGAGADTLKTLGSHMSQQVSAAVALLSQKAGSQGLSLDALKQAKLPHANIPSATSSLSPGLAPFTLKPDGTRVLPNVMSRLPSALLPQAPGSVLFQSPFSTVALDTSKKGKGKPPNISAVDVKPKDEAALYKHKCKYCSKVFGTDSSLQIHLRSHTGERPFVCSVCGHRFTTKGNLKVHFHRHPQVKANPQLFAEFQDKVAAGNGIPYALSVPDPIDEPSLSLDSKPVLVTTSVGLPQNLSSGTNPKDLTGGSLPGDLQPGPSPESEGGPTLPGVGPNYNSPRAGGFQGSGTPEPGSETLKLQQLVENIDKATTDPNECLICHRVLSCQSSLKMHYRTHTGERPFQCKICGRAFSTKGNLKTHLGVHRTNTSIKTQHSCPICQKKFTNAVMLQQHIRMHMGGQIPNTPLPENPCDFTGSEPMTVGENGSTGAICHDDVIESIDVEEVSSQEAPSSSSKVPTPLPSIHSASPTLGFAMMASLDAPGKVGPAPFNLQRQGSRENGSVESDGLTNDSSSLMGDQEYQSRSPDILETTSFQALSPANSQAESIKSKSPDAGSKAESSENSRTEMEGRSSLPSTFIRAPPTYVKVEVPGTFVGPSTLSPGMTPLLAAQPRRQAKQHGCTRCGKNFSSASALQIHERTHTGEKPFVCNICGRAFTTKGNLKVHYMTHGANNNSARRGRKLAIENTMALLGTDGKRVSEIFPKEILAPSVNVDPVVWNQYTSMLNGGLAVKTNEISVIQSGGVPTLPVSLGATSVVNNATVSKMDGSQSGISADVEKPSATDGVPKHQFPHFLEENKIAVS
Technique: universal PBM
Molecule type: double-stranded DNA, one strand shown
Medium: in vitro
Tested at: 600 nM
Notes: 8-mer, flanks averaged, mean of replicates
Direction: higher = stronger binding
Quantity: E-score
GGAGGAAC: -0.125
CCCAAGAC: -0.195
GAAGTTAA: 0.132
CTCTAGAG: -0.142
ACTGTTTC: -0.0136
AAGTTTAC: 0.187
GCAGCAAA: -0.06
CCGTCGCC: -0.332
GGTAGAGA: -0.091
TGAGCTCA: -0.103
ACGTTAGT: 0.176
CCTCCCGC: -0.326
CTCGCACA: -0.108
GTAATGAA: 0.211
AGCAACAT: 0.126
CCCATAGA: -0.0824

Sample 3
Target: ABI1, truncated, D143A, DHFR fusion (Arabidopsis thaliana)
Technique: DHFR PCA, deep sequencing
Medium: yeast
Notes: methotrexate growth selection, single substitutions
Added: (+)-ABA 17 µM
Relative to: wild-type fitted maximum
Direction: higher = stronger binding
Quantity: relative binding score
Parent: PYL1, truncated, DHFR fusion (Arabidopsis thaliana); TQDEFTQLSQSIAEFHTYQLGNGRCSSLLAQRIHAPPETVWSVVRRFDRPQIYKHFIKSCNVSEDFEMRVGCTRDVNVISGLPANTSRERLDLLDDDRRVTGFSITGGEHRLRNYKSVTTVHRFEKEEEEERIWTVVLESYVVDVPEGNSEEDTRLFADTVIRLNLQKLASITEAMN; partner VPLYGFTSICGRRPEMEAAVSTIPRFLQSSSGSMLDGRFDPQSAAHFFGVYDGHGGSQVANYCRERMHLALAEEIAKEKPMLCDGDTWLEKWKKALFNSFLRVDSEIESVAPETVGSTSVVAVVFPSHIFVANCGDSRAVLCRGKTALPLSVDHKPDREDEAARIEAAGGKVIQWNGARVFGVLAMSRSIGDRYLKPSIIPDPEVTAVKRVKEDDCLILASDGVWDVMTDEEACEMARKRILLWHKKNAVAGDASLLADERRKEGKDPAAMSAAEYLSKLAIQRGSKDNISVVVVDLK
V145Q: 29.5%
I57K: 10.3%
N149K: 7.4%
K168N: 97%
V136D: 9.31%
K168V: 64.1%
H55V: 97.9%
Q7D: 79.8%
S117V: -2.05%
I79Q: 76.4%
L93W: 53%
I52Q: 83.8%
D96F: 0.764%
S80P: 5.58%
V143M: 41.8%
L94N: 3.85%
Q19G: 70.5%
T173N: 14.1%
L164V: 85.9%
R113N: 86.7%
W134E: 92.5%
R111P: 15.6%
S9C: 58.6%
S117T: 3.2%

Sample 4
Cell line: yeast with cyclin E2-Cln2 chimera
Read-out: cell growth
Action: binder
Technique: competitive growth deep sequencing
Molecule type: peptide
Tested at: concentration not given
Notes: peptide tiling library
Direction: direction not given
Quantity: growth enrichment score
QNPCGSKACRRLFGPV: 1.26
DGCSPIKNWSPMRL: 0.46
KDDDKAWEYEERDRRS: 0.454
NFETPEAETPIRSPFK: 0.00814
VRDLSYRLVFLACCVA: -0.0985
FQDSGYNELKSCSFDN: 0.321
LENIEPLQVSFAVLSS: -0.171
SGYLTDENEVGFRG: 0.295
VLPGGVPSPGASLTSM: -0.733
PQWPCGKHKRVLIFAS: 0.141
TRRRLFVENDSP: 1.31
RNRGPKLNAMLRLGVL: 0.171
VLVRTSACRSLFGPVD: 0.749
AEHPKPSACRNLFGPV: 1.29
NNIRKALSFDNRGEEH: 0.38
GAEELEDLVHFSVSEL: 1.14
TSPGPVLLHPSPSTTQ: -0.0374

Sample 5
Target: Ras GTPase-activating protein-binding protein 1, full length (G3BP1, Homo sapiens, UniProt Q13283)
Sequence of UniProt Q13283 (whole entry, looked up): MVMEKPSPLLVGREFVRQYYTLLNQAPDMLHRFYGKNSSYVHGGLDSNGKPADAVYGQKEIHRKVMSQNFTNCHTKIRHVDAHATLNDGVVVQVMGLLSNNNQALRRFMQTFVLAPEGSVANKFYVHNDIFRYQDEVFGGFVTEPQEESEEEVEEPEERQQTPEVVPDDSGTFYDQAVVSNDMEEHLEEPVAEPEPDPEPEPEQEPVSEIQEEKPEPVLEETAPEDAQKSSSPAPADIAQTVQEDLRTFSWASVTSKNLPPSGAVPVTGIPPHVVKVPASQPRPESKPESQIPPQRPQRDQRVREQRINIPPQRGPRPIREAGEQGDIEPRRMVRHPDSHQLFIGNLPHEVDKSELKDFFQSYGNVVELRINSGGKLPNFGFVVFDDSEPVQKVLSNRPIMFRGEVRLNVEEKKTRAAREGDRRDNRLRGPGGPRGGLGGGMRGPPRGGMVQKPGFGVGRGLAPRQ
Technique: RNA Bind-n-Seq
Molecule type: RNA
Medium: in vitro
Tested at: 200 nM
Notes: whole 134-nt RNA, ends assumed
Added: 150 mM LiCl
Relative to: input library
Direction: higher = stronger binding
Quantity: log2 enrichment
Each molecule: 7-deaza-guanosine replaces G
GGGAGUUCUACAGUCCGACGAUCACCAUGCAGGUGGGCAUCUUUGGGAAGCGGGGCAAGGGGGGGAUAGGGAGGGGGGUAACACUUUGGGAACAGGUGGUCCCAGGUCGUUUCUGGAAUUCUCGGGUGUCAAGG: 0.125
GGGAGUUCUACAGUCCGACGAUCACGAUGCAGGUGGGCAUCUUUGGGAAGUGGGGCAAGGGGGGGAUAGGGAGGGGGGUAACACUUUGGGAACAGGUGGUCCCAGGUCGUUUCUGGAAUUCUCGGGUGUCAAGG: 0.478
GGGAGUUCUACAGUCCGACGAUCCCUCAAGUCCUGUGCUACACAUCGUAUGUACCGAAUCGGGAAGGGAAGGAAGGAAAGUAUUAUGUUACGCCGUUCGGAUCUGCACUUCCAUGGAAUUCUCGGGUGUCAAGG: -0.965
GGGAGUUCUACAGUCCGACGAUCCCUCAAGUCCUGUGCUACACAUCGUAUGUACCGAAUCGGAGGUUUGGUUUGGAAAGUAUUAUGUUACGCCGUUCGGAUCUGCACUUCCAGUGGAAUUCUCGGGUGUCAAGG: -0.708
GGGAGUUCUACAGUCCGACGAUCCACAGACAACACGCACCCACACAGACACAGAGGGAAGGGGUUGGGAUGGGGACCGGGUGCACAGCAGGGCGGGGUAGGACCCCAGCCCCUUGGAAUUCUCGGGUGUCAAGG: 0.279
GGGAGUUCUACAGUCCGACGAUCGCAGGAAGUAAAAACAAAUGGAUAUGCUUCGGAUAGUGGCAGGGGUGGGGGUUGCUAAGGAAAGGGUGGGAUGGGAGUGGGUAAAGAGUUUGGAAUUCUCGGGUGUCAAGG: 0.14
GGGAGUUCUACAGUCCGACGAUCCAAGUCCUGUGCUACACAUCGUAUGUACCGAAUCGGAAAAGGGGAAAAGGAAAAGGAAAGUAUUAUGUUACGCCGUUCGGAUCUGCACUUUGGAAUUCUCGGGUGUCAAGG: -1.04
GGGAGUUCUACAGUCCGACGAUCUGUGCUACACAUCGUAUGUACCGAAUCGGGGUUUUUGGGGAAAAAAAGGGGAAAAAAAGGGGAAAGUAUUAUGUUACGCCGUUCGGAUCUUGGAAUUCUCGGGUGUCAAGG: -0.0379
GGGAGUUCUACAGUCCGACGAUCUAACUUUAGAGGAGGAUCUGAUGGAUAUGGCAGUGGACGUGGAUUUGGGGAUGGCUAUAAUCGGUAUGGAGGAGGACCUGGAGGUGGCAAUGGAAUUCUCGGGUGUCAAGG: 0.298
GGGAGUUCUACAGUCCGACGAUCUGGCCCUGGUGGCAUGCGGGGAGGAAGAGGUGGCCUCAUGGAUCGUGGUGCUCCCGGUGGAAUGUUCAGAGGUGGCCGUGGUGGAGACAGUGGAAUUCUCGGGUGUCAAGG: 1.49
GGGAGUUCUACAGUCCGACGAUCUCAAGUCCUGUGCUACACAUCGUAUGUACCGAAUCGGGUUUGGUUUGGGGUUUGGAAAGUAUUAUGUUACGCCGUUCGGAUCUGCACUUCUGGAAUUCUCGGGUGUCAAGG: -1.19

Excerpt of the above (sample 2):
ACTGTTTC: -0.0136
AAGTTTAC: 0.187
GCAGCAAA: -0.06
CCGTCGCC: -0.332
GGTAGAGA: -0.091
TGAGCTCA: -0.103
ACGTTAGT: 0.176
CCTCCCGC: -0.326
CTCGCACA: -0.108
